Published values gathered from unrelated publications.
PRKG1 isoform beta: cGMP-dependent protein kinase 1, isoform beta (PRKG1, Homo sapiens, UniProt Q13976)
UniProt Q13976, sequence (whole entry, looked up): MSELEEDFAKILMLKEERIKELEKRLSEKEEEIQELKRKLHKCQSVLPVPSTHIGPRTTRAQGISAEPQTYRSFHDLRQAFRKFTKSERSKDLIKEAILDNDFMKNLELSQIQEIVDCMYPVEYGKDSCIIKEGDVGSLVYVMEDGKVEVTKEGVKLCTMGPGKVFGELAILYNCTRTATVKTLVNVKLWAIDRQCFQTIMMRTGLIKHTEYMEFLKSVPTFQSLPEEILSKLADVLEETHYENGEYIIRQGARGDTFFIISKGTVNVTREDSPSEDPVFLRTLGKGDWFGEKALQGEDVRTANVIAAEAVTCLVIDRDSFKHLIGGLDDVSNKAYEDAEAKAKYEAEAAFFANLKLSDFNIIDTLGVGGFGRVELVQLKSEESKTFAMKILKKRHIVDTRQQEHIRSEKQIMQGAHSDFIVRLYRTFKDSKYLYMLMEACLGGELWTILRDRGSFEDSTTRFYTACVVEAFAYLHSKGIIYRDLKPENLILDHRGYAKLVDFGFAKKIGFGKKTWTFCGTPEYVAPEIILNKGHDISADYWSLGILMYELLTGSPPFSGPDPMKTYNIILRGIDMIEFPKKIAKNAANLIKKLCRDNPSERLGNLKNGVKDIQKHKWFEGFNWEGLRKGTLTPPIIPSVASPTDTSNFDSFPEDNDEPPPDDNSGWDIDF
PRKG1: cGMP-dependent protein kinase 1 (PRKG1, Homo sapiens, UniProt Q13976)

Cc1cnc(NC2CCOCC2)nc1-n1cnc(C(=O)NC(CN)c2cc(F)cc(Cl)c2)c1 (centres unmarked)
remaining activity (PRKG1 isoform beta; radiometric; 1 µM): 103%

CC(C)c1ccc(NC(=O)c2cccs2)c(-c2nc3ccccc3[nH]c2=O)c1
remaining activity (PRKG1 isoform beta; kinase activity; 1 µM): 95%

Cc1ccc(C(=O)NCc2ccsc2)cc1C#Cc1cn(C(C)C)c2ncnc(N)c12
remaining activity (PRKG1 isoform beta; kinase activity; 1 µM, added: ATP at Km): 126%

CN1CC(Oc2cnc(C#N)cc2-c2ccn3nc(NC(=O)C4CC4)cc3c2)C1
inhibition (PRKG1 isoform beta; inhibitor, KinaseProfiler panel; 1 µM): 3%

COc1cc(F)ccc1-c1ncnc(Nc2cccc(C[S@](C)(=N)=O)c2)n1
remaining activity (PRKG1 isoform beta; kinase activity; 10 µM, added: 10 µM ATP): 112%

Cn1cnc(Br)c1C1=CN(c2ncnc3[nH]cnc23)CCS1
inhibition (PRKG1 isoform beta; enzyme activity; 0.05 µM): 68.8%

COc1cc(-c2cncc3c2CN(C)Cc2cc(N4CCNCC4)ccc2-3)cc(OC)c1OC
remaining activity (PRKG1 isoform beta; enzyme activity; 1 µM, added: 10 µM ATP; reference: DMSO): 107%

CCN(CC)c1ccc(C2=NNC(=O)CC2C)cc1[N+](=O)[O-] (centres unmarked)
remaining activity (PRKG1 isoform beta; kinase activity, inhibitor; 10 µM): 90%

Cc1ccc(NC(=O)c2ccc(C)c(C(F)(F)F)c2)cc1C#Cc1nn(C2CCC(O)CC2)c2ncnc(N)c12 (centres unmarked)
remaining activity (PRKG1 isoform beta; enzyme activity; 10 µM, added: ATP 10 µM): 115%

Cc1cc(Nc2cc(N3CCN(C)CC3)nc(Sc3ccc(NC(=O)C4CC4)cc3)n2)[nH]n1
remaining activity (PRKG1 isoform beta; kinase activity, KinaseProfiler; 0.03 µM, species human; reference: control): 98%

C=CC(=O)N1CCC(COCC(=O)N2CCN(c3nc(-c4cnc(N)nc4C(F)F)nc(N4CCOC[C@@H]4C)n3)CC2)CC1
remaining binding (PRKG1; KINOMEscan; 1 µM): 96%

CC(C)(O)[C@H]1CC[C@H](Nc2ccc3ncc(-c4cccc(C(F)(F)F)c4)n3n2)CC1
remaining activity (PRKG1; enzyme activity, inhibitor; 1 µM, added: 10 µM ATP; reference: DMSO): 89.6%

CCCOc1ccc(OC)c(F)c1C(=O)c1ccc(C(=O)N[C@@H]2CNC[C@H]2NC(=O)c2ccc3[nH]ncc3c2)cc1
remaining activity (PRKG1 isoform beta; kinase activity; 10 µM): -1%

Cc1cc(NC(=O)c2cccc3cc(-c4cccc5[nH]nc(N)c45)ccc23)ccc1F
remaining activity (PRKG1 isoform beta; enzyme activity, kinase profiling panel; 0.1 µM): 70%

Repeated from above:
Cc1ccc(NC(=O)c2ccc(C)c(C(F)(F)F)c2)cc1C#Cc1nn(C2CCC(O)CC2)c2ncnc(N)c12 (centres unmarked)
remaining activity (PRKG1 isoform beta; enzyme activity; 10 µM, added: ATP 10 µM): 115%
